Experimental data pooled from the literature.
Compare with care: the assays were run in different laboratories. Several values in a cell are separate wells, animals, samples, runs or records. ± marks the error that the study gave. ≈ marks a conversion by molar mass, not a printed value.

Cc1ccc2[nH]c3c(c2c1)CCCC3NCCCc1ccccc1 (stereo not drawn): “MIC fold change” 4 (Streptococcus pneumoniae; concentration not given, 10% fetal bovine serum; relative to: without serum).
For [O-][N+]1=C(Cc2ccccc2)C2=NCCCN2c2ccccc21, the MIC50 was 16 µg/mL (≈ 54.9 µM) (Clostridioides difficile; microbial growth).
CCc1nn(C)c2nc(-c3ccc(C(=O)O)cc3)nc(NCc3ccccc3)c12 has a parasite number of 57% and 68.9% and 44.8% and 55.4% (Cryptosporidium parvum; HCT-8; EC90, 48 h; relative to: DMSO control).
For CC[C@H](C)[C@H](NC(=O)[C@H](C)NC(=O)CNC(=O)[C@H](C)NC(=O)[C@H](CCCCN)NC(=O)[C@H](CO)NC(=O)[C@H](C)NC(=O)[C@H](CCSC)NC(=O)CN)C(=O)N[C@@H](C)C(=O)NCC(=O)N[C@@H](CCCCN)C(=O)N[C@H](C(=O)N[C@@H](C)C(=O)N[C@@H](CCCCN)C(=O)N[C@H](C(=O)N[C@@H](C)C(=O)N[C@@H](CC(C)C)C(=O)N[C@@H](CCCCN)C(=O)N[C@@H](C)C(=O)N[C@@H](CC(C)C)C(N)=O)C(C)C)[C@@H](C)CC, the combination index was 0.94 (Escherichia coli; 3538 wild type; together with: ampicillin).
The MIC90 of CC(C)[C@H]1NC(=O)[C@H](Cc2ccc(O)cc2)NC(=O)[C@@H](C(C)C)NC(=O)[C@@H](C)NC(=O)[C@H](C)NC(=O)[C@@H](Cc2c(-c3ccc(-c4ccc5ccccc5c4)cc3)[nH]c3ccccc23)NC(=O)[C@@H](CO)NC1=O is reported as 100 µM (≈ 97.9 µg/mL) (Mycobacterium marinum).
For CC[C@H](C)[C@H](NC(=O)[C@H](CCCCN)NC(=O)[C@H](CCCCN)NC(=O)[C@H](Cc1ccccc1)NC(=O)[C@H](Cc1ccccc1)NC(=O)[C@H](CCCCN)NC(=O)[C@H](CCCCN)NC(=O)[C@H](Cc1ccccc1)NC(=O)[C@H](CCCNC(=N)N)NC(=O)[C@@H](N)CCCCN)C(=O)N[C@@H](CCCCN)C(=O)N[C@@H](CCCCN)C(=O)N[C@@H](CO)C(=O)N[C@H](C(=O)N[C@@H](CCCCN)C(=O)N[C@@H](CCCCN)C(=O)N[C@@H](CCCNC(=N)N)C(=O)N[C@H](C(=O)N[C@@H](CCCCN)C(=O)N[C@@H](CCCCN)C(=O)N[C@@H](CC(C)C)C(=O)N[C@@H](Cc1ccccc1)C(=O)N[C@@H](CCCCN)C(=O)N[C@@H](CCCCN)C(=O)N1CCC[C@H]1C(=O)N[C@@H](CCCNC(=N)N)C(=O)N[C@H](C(=O)N[C@H](C(=O)N1CCC[C@H]1C(=O)N[C@H](C(=O)N[C@@H](CO)C(=O)N[C@H](C(=O)N1CCC[C@H]1C(=O)N[C@@H](Cc1ccccc1)C(=O)O)[C@@H](C)CC)[C@@H](C)CC)[C@@H](C)CC)C(C)C)C(C)C)C(C)C, the MBC was 64 µg/mL (Streptococcus pneumoniae; ATCC 49619).
For CCCCCCCC(=O)NCCCC[C@H](NC(=O)CCCCCCC)C(=O)N[C@@H](CCCCNC(=O)CCCCCCC)C(=O)NCC(=O)NCC(=O)NCC(=O)N[C@@H](CS)C(=O)N[C@@H](CCCNC(=N)N)C(=O)N[C@@H](CCCCN)C(=O)N1CCC[C@H]1C(=O)N[C@@H](CS)C(=O)N[C@@H](CCCNC(=N)N)C(=O)N[C@@H](CCCCN)C(=O)N1CCC[C@H]1C(=O)N[C@@H](CS)C(=O)N[C@@H](CCCNC(=N)N)C(=O)N[C@@H](CCCCN)C(=O)N1CCC[C@H]1C(N)=O, “geometric mean MIC” read 11.3 µM (Candida; twelve fungal strains).
With CCOC(=O)C1(Cc2cc(OC)cc(OC)c2)Oc2cc(F)ccc2N(Cc2cc(OC)cc(OC)c2)C1=O (stereo not drawn) the inhibition was 53.3 ± 1.94% (Setaria viridis; fresh weight, greenhouse postemergence; postemergence, 150 g ai/ha, 21 days).
For CC(C)[C@H]1NC(=O)[C@H](Cc2ccccc2)NC(=O)[C@@H](C(C)C)NC(=O)[C@@H](C)NC(=O)[C@H](CO)NC(=O)[C@@H](Cc2c(-c3ccc(-c4ccc5ccccc5c4)cc3)[nH]c3ccccc23)NC(=O)[C@@H](C)NC1=O, the MIC90 was 31.2 µM (≈ 30.1 µg/mL) (Mycobacterium marinum).
CCC(=O)OCCSCCC(=O)N[C@H](CCN)C(=O)N[C@@H](CCN)C(=O)N[C@@H](CCN)C(=O)N[C@@H](CC(C)C)C(=O)N[C@H](Cc1ccccc1)C(=O)N[C@@H](CCN)C(=O)N[C@@H](CCN)C(=O)N[C@@H](CC(C)C)C(N)=O gave an MBC of over 128 µM (Acinetobacter calcoaceticus; BHI agar spot plating; 24 h, 37 °C).
With Cc1cc(C(=O)Nc2nc3cccc(C)c3n2[C@H]2CCCCN(C(=O)/C=C/CN(C)C)C2)ccn1 the survival was 206% and 201% and 189% and 209% (Trypanosoma brucei brucei; 2T1 CLK1 overexpressing; 0.0781 µM, compound pretreated; relative to: maximum).
O=C1NC2(CC2)COc2ncc(F)cc2[C@H]2COCCN2c2ccn3ncc1c3n2 — result for “organ-to-body weight ratio”: 0.745 ± 0.068% (Sprague-Dawley rat, male, testes; oral, 20 mg/kg/day, 4 weeks dosing, end of recovery).
For O=S(=O)(c1ccc(-c2ccc3ncnc(Nc4ccc(OCc5ccc(C(F)(F)F)c(F)c5)c(Cl)c4)c3c2)cc1)N1CCOCC1, the inhibition was 21% (Trypanosoma cruzi; intracellular amastigote growth, β-galactosidase CPRG; 3T3, Tulahuen, β-galactosidase-expressing; 10 µM, 96 h).
CC(O)CN.O=C(O)C(Cl)Cl has an inhibition of 0% (Solanum nigrum; herbicidal activity; 15 mg/mL, 21 days, pre-emergence greenhouse).
With O[C@]12C=C(c3nccc4c3[nH]c3ccccc34)[C@@H]3CCN(CCCC/C=C\CC1)C[C@@]31C[C@@H]3/C=C\CCCCN3[C@H]12 the IC50 was 6.61 µg/mL (≈ 12 µM) (Cryptococcus neoformans; ATCC 90113; 5% bovine calf serum).
N=C(N)NCCC[C@H](NC(=O)[C@H](CCCNC(=N)N)NC(=O)[C@H](CCCNC(=N)N)NC(=O)[C@H](CCC(N)=O)NC(=O)[C@H](CCCNC(=N)N)NC(=O)[C@H](CCCNC(=N)N)NC(=O)[C@H](CCCCN)NC(=O)[C@H](CCCCN)NC(=O)[C@H](CCCNC(=N)N)NC(=O)CNC(=O)[C@H](Cc1ccc(O)cc1)NC(=O)[C@H](Cc1ccccc1)NC(=O)[C@H](Cc1ccccc1)NC(=O)[C@H](Cc1ccccc1)NC(=O)Cc1ccc2ccccc2c1)C(=O)O — result for “geometric mean MIC”: 4.42 µM (Gram-positive bacteria; seven strains).
The mortality of CN(C)c1nc(NCc2ccc(Oc3ccccc3)cc2)c(/N=N/c2ccc(Cl)cc2)c(N(C)C)n1 is reported as 83.3 ± 5.8% (Ostrinia furnacalis; leaf dipping; 200 mg/L, 96 h).
CC[C@H](C)[C@@H]1NC(=O)[C@H](CO)NC(=O)[C@H](CCCCN)NC(=O)[C@@H]2CSSC[C@@H](C(=O)N[C@@H](Cc3ccc(O)cc3)C(N)=O)NC(=O)[C@H](CCCCN)NC(=O)[C@@H]3CSSC[C@H](NC(=O)[C@H](CCCNC(=N)N)NC(=O)[C@H](CC(C)C)NC(=O)[C@H](CC(=O)O)NC(=O)[C@H](CC(=O)O)NC(=O)[C@H](CCC(=O)O)NC(=O)[C@H](CC(N)=O)NC(=O)[C@H](Cc4c[nH]c5ccccc45)NC(=O)[C@@H]4CCCN4C(=O)CNC(=O)[C@H](CC(N)=O)NC(=O)[C@@H](NC(=O)CNC(=O)[C@H](Cc4ccccc4)NC(=O)CN)CSSC[C@H](NC(=O)[C@H](Cc4ccc(O)cc4)NC(=O)CNC(=O)CNC(=O)[C@H](CCCCN)NC(=O)[C@H](Cc4ccc(O)cc4)NC(=O)CNC(=O)[C@H](CCCCN)NC1=O)C(=O)N[C@@H](C)C(=O)N[C@@H](CCCCN)C(=O)NCC(=O)NCC(=O)N[C@@H](Cc1ccccc1)C(=O)N[C@@H](C(C)C)C(=O)N3)C(=O)N[C@@H](Cc1c[nH]cn1)C(=O)N[C@@H](CC(N)=O)C(=O)N[C@@H](Cc1c[nH]cn1)C(=O)N2 gave an MBC of 0.25 µM (Streptococcus pneumoniae; 19F; 24 h).
c1ccc(Nc2ncnc3ccc(-c4cccc(N5CCOCC5)c4)cc23)cc1 gave an EC50 of 6.7 µM (Trypanosoma cruzi; intracellular amastigote growth, β-galactosidase CPRG; 3T3, Tulahuen, β-galactosidase-expressing; 96 h).
[O-][N+]1=C(c2ccc(Cl)cc2)C2=NCCCN2c2ccccc21 gave an MIC50 of 8 µg/mL (≈ 25.7 µM) (Clostridioides difficile; microbial growth).
Under “MIC fold change”, CC[C@H](C)CCCCC(=O)N[C@@H](CCN)C(=O)N[C@H](C(=O)N[C@@H](CCN)C(=O)N[C@H]1CCNC(=O)[C@H]([C@@H](C)O)NC(=O)[C@H](CCN)NC(=O)[C@H](CCN)NC(=O)[C@H](CC(C)C)NC(=O)[C@@H](CC(C)C)NC(=O)[C@H](CCN)NC1=O)[C@@H](C)O is recorded as 4.21 (Escherichia coli; daily serial passaging; ATCC 8739; highest sub-MIC, 44 days; relative to: initial MIC).

Repeated from above:
The MIC90 of CC(C)[C@H]1NC(=O)[C@H](Cc2ccc(O)cc2)NC(=O)[C@@H](C(C)C)NC(=O)[C@@H](C)NC(=O)[C@H](C)NC(=O)[C@@H](Cc2c(-c3ccc(-c4ccc5ccccc5c4)cc3)[nH]c3ccccc23)NC(=O)[C@@H](CO)NC1=O is reported as 100 µM (≈ 97.9 µg/mL) (Mycobacterium marinum).
For CC[C@H](C)[C@H](NC(=O)[C@H](CCCCN)NC(=O)[C@H](CCCCN)NC(=O)[C@H](Cc1ccccc1)NC(=O)[C@H](Cc1ccccc1)NC(=O)[C@H](CCCCN)NC(=O)[C@H](CCCCN)NC(=O)[C@H](Cc1ccccc1)NC(=O)[C@H](CCCNC(=N)N)NC(=O)[C@@H](N)CCCCN)C(=O)N[C@@H](CCCCN)C(=O)N[C@@H](CCCCN)C(=O)N[C@@H](CO)C(=O)N[C@H](C(=O)N[C@@H](CCCCN)C(=O)N[C@@H](CCCCN)C(=O)N[C@@H](CCCNC(=N)N)C(=O)N[C@H](C(=O)N[C@@H](CCCCN)C(=O)N[C@@H](CCCCN)C(=O)N[C@@H](CC(C)C)C(=O)N[C@@H](Cc1ccccc1)C(=O)N[C@@H](CCCCN)C(=O)N[C@@H](CCCCN)C(=O)N1CCC[C@H]1C(=O)N[C@@H](CCCNC(=N)N)C(=O)N[C@H](C(=O)N[C@H](C(=O)N1CCC[C@H]1C(=O)N[C@H](C(=O)N[C@@H](CO)C(=O)N[C@H](C(=O)N1CCC[C@H]1C(=O)N[C@@H](Cc1ccccc1)C(=O)O)[C@@H](C)CC)[C@@H](C)CC)[C@@H](C)CC)C(C)C)C(C)C)C(C)C, the MBC was 64 µg/mL (Streptococcus pneumoniae; ATCC 49619).
For CCCCCCCC(=O)NCCCC[C@H](NC(=O)CCCCCCC)C(=O)N[C@@H](CCCCNC(=O)CCCCCCC)C(=O)NCC(=O)NCC(=O)NCC(=O)N[C@@H](CS)C(=O)N[C@@H](CCCNC(=N)N)C(=O)N[C@@H](CCCCN)C(=O)N1CCC[C@H]1C(=O)N[C@@H](CS)C(=O)N[C@@H](CCCNC(=N)N)C(=O)N[C@@H](CCCCN)C(=O)N1CCC[C@H]1C(=O)N[C@@H](CS)C(=O)N[C@@H](CCCNC(=N)N)C(=O)N[C@@H](CCCCN)C(=O)N1CCC[C@H]1C(N)=O, “geometric mean MIC” read 11.3 µM (Candida; twelve fungal strains).
